Measurements pooled from the literature.
Lines come from different studies, so protocols differ. ± gives the spread as reported.
CYP3A4: Cytochrome P450 3A4 (CYP3A4, Homo sapiens, UniProt P08684)
UniProt P08684, sequence (whole entry, looked up): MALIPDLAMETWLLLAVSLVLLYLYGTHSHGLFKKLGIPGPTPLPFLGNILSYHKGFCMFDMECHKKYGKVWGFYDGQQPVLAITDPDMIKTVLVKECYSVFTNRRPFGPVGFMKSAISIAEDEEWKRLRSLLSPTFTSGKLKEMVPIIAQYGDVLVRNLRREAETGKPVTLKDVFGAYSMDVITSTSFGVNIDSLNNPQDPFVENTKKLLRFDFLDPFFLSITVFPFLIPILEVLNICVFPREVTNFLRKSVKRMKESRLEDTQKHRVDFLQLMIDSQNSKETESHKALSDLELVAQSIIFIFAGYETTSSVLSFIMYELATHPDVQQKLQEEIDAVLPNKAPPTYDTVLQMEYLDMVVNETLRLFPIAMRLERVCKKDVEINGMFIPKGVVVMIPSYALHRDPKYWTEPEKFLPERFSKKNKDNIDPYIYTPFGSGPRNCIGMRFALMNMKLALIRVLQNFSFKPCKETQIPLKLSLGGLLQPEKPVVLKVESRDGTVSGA
SLCO1B3: Solute carrier organic anion transporter family member 1B3 (SLCO1B3, Homo sapiens, UniProt Q9NPD5)
UniProt Q9NPD5, sequence (whole entry, looked up): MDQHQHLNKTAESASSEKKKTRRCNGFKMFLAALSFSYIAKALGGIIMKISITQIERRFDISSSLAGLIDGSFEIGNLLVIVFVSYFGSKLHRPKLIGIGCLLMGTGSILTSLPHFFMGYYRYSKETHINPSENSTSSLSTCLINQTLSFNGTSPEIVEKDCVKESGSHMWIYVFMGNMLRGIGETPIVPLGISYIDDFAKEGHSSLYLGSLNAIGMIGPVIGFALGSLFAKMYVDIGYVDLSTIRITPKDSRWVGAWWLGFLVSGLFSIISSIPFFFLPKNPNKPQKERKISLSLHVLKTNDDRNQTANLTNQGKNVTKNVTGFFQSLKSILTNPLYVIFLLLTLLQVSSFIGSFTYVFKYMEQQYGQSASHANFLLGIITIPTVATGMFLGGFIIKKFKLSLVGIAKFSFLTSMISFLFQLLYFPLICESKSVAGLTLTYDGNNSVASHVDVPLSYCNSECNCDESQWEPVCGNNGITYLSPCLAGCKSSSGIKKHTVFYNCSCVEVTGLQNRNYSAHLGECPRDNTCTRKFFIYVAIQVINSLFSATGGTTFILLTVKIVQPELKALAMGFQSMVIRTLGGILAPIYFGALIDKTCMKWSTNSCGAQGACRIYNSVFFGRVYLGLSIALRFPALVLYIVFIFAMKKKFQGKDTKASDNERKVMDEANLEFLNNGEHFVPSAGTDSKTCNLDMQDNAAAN
UniProt P08835, sequence (whole entry, looked up): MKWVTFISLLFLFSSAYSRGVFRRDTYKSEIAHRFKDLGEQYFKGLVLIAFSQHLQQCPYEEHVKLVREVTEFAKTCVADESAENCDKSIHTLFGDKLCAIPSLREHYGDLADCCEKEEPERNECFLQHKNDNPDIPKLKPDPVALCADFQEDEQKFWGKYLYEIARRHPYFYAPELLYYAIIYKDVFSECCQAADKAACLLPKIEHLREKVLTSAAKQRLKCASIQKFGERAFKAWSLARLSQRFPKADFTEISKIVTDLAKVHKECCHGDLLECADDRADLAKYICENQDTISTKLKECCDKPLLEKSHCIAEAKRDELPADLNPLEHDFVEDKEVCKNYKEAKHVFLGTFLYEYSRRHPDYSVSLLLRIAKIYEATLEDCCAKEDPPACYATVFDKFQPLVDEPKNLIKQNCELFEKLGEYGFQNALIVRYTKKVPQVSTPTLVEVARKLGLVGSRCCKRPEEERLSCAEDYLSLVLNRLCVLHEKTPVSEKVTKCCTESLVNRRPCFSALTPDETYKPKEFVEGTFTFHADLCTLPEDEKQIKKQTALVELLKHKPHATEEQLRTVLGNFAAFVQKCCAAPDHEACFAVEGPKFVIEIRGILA
UniProt P00800, sequence (whole entry, looked up): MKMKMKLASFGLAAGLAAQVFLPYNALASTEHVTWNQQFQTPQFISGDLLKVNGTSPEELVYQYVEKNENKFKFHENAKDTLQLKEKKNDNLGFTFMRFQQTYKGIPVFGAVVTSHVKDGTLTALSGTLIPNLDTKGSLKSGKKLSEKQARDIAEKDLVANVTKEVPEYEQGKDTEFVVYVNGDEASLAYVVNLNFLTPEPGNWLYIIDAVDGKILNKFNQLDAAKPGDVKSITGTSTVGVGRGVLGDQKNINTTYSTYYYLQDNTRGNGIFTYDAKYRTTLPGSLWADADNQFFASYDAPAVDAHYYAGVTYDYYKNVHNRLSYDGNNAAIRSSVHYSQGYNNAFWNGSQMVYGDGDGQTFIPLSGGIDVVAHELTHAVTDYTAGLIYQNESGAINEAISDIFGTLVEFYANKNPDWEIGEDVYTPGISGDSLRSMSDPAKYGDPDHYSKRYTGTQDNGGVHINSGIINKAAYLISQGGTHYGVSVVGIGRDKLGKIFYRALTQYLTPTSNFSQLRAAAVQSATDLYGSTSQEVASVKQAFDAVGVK
UniProt Q9UNQ0, sequence (whole entry, looked up): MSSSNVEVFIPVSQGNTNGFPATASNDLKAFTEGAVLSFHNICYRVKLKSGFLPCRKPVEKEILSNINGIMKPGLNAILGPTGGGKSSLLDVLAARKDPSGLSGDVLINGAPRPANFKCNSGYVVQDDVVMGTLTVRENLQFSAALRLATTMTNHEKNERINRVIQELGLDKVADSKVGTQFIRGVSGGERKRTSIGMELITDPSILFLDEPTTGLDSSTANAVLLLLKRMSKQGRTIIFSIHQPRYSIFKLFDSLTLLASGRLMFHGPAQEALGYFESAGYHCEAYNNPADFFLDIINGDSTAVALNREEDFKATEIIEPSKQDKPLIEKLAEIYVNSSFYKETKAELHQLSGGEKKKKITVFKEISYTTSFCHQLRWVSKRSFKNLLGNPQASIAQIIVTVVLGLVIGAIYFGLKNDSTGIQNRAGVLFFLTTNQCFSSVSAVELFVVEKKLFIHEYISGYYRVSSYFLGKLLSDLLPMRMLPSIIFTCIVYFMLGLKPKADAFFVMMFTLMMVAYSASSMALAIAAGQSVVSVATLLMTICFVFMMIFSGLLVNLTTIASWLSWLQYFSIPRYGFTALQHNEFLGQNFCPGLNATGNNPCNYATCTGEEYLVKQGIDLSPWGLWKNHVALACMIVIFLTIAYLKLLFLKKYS
UniProt P61073, sequence (whole entry, looked up): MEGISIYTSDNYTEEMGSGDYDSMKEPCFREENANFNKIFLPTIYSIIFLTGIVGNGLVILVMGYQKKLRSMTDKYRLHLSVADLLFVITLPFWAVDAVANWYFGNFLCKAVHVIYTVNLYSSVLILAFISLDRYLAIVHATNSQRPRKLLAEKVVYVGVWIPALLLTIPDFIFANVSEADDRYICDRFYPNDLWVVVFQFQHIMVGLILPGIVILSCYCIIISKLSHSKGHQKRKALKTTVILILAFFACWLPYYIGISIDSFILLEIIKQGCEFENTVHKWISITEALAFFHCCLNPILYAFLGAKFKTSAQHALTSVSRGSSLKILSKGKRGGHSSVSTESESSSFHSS

Structure (SMILES)	target	test	system	setting	scale	endpoint	value
CNC(=O)Oc1cc(C)c([S+](C)[O-])c(C)c1 (stereo not drawn)	CYP3A4		human liver fractions	1 µM, 30 min, pH 7.4		metabolised	3.37%
CC[C@@H](C)[C@@H](NC(=O)[C@@H](CCC(=O)O)NC(=O)[C@@H](CCC(=O)O)NC(=O)[C@@H](CCC(N)=O)NC(=O)C(C)(C)NC(=O)[C@@H](CCCCN)NC(=O)[C@H](NC(=O)[C@@H](Cc1ccccc1)NC(=O)C(C)(C)NC(=O)[C@@H](CC(=O)O)NC(=O)[C@@H](CCCCN)NC(=O)[C@@H](Cc1ccccc1)NC(=O)[C@@H](CC(N)=O)NC(=O)[C@@H](Cc1c[nH]cn1)NC(=O)[C@@H](CCC(=O)O)NC(=O)C(C)(C)NC(=O)[C@@H](CCC(=O)O)NC(=O)[C@@H](CC(=O)O)NC(=O)[C@@H](CC(C)C)NC(=O)[C@@H](Cc1ccccc1)NC(=O)[C@@H](Cc1ccc(O)cc1)NC(=O)[C@@H](CCC(N)=O)NC(=O)[C@H](N)CO)[C@H](C)O)C(=O)NCCOCCOCC(=O)NCCOCCOCC(=O)NCCOCCOCC(=O)N[C@@H](CS)C(N)=O	Thermolysin (npr, Bacillus thermoproteolyticus, UniProt P00800)	RP-HPLC		240 min, pH 8, 50 °C, with: thermolysin 15 µg/mL		proteolytic stability	no effect
CNC(=O)Oc1cc(C)c(S(C)(=O)=O)c(C)c1	CYP3A4		human liver microsomes	2 µM, pH 7.4, with: midazolam		inhibition	< 0%
CC(CCC(=O)NCC(=O)O)C1CCC2C3CCC4CC(OC5OC(C(=O)O)C(O)C(O)C5O)CCC4(C)C3CC(O)C12C (stereo not drawn)	SLCO1B3	substrate	transfected HEK293 cells	1 µM, 2 min	baseline: wild-type HEK293 cells	uptake ratio	5.5 ± 0.4
Cc1cc(C)c(-c2cc(C)c(OP(=O)([O-])OCCC[C@H](C(=O)[O-])N3CCN(CC(=O)[O-])CCN(CC(=O)[O-])CCN(CC(=O)[O-])CC3)cc2C)c(C)c1.[Gd+3]	Albumin (ALB, Homo sapiens, UniProt P02768)	variable temperature NMRD	HSA-bound complex			ZFS modulation correlation time	18 ps
Cc1c(NC(=O)c2ccc3c(c2)CC[C@@H]2C[C@@](O)(C(F)(F)F)CC[C@@]32Cc2ccccc2)ccc[n+]1[O-]	CYP3A4/5, human	time-dependent inhibitor, refers to: 1'-hydroxymidazolam	pooled human liver microsomes	saturation not achieved, with: midazolam 23 µM		Ki	4 µM
CC(C)(O)c1ccccc1CC[C@H](c1cccc(/C=C/c2ccc3ccc(Cl)cc3n2)c1)[S+]([O-])CC1(CC(=O)O)CC1 (stereo partly drawn)	CYP3A4		human liver microsomes	2 µM, pH 7.4, with: midazolam		inhibition	10.9%
CC(CCC(=O)NCC(=O)O)C1CCC2C3C(O)CC4CC(OC5OC(C(=O)O)C(O)C(O)C5O)CCC4(C)C3CCC12C (stereo not drawn)	SLCO1B3	transporter uptake, inhibitor				IC50	> 100 µM
C=C1CCC2[C@](C)(CO)[C@H](O)CC[C@@]2(C)[C@@H]1/C=C/C1=CCOC1=O (stereo partly drawn)	Albumin (ALB, Homo sapiens, UniProt P02768)	HPLC-based	human plasma			fraction unbound	0.07
C=CCc1ccc(O)c(-c2cc(CC=C)cc(O)c2O)c1	Broad substrate specificity ATP-binding cassette transporter ABCG2 (ABCG2, Homo sapiens, UniProt Q9UNQ0)	mitoxantrone transport, inhibitor		50 µM, 30 min, with: mitoxantrone 5 µM	baseline: Ko143 0.5 µM	inhibition	6.9 ± 3.8%
O=C(NC(CSC(Cc1ccccc1)C(=O)NCCCc1cccnc1)Cc1ccc(-c2ccccc2)cc1)c1cccnc1 (stereo not drawn)	CYP3A4			16 µM, 2 h, with: 10 mM H2O2	baseline: ligand-free enzyme	heme destroyed	43%
CC(C)C[C@@H](NC(=O)[C@H](N)Cc1ccccc1)C(=O)NCC(=O)N[C@@H](C(=O)N[C@H](CC(C)C)C(=O)N[C@H](C)C(=O)N[C@H](CC(C)C)C(=O)N[C@H](CC(C)C)C(=O)NCC(=O)N[C@H](Cc1ccc(O)cc1)C(=O)N[C@H](CC(C)C)C(=O)N[C@H](C)C(=O)N[C@@H](C(=O)N[C@H](CCCNC(=N)N)C(=O)N1CCC[C@@H]1C(=O)N[C@H](Cc1ccccc1)C(=O)N[C@H](CC(C)C)C(=O)N1CCC[C@@H]1C(=O)N[C@H](CCCCN)C(=O)N[C@H](CCCCN)C(=O)N[C@H](CCCCN)C(=O)N[C@H](CCC(N)=O)C(=O)N[C@H](CCC(N)=O)C(=O)N[C@H](CCCCN)C(N)=O)C(C)C)C(C)C	chymotrypsin	substrate, HPLC		450 µM, 540 min, 22 °C		peptide cleaved	10%
C[C@@H](O)[C@H](NC(=O)[C@@H]1CCCN1C(=O)CNC(=O)[C@@H]1CC(=O)NCC(=O)N[C@H]2Cc3cn(c4ccccc34)-c3cc(ccc3O)C[C@H](NC2=O)C(=O)NCC(=O)N[C@@H](CO)C(=O)N[C@@H](CCC(N)=O)C(=O)N[C@@H](Cc2c[nH]c3ccccc23)C(=O)N1)C(=O)NCC(=O)N[C@@H](CCC(N)=O)C(=O)N[C@@H](CCCNC(=N)N)C(=O)N[C@@H](CC(=O)O)C(=O)O	chymotrypsin	HPLC-MS		4 h, pH 8.5, 25 °C		proteolytic stability	no effect
CCCS(=O)(=O)c1ccc2[nH]c(NC(=O)OC)nc2c1	CYP3A4	inhibitor		2 µM, pH 7.4		inhibition	7.51%
Cc1cc(C)c(-c2cc(C)c(OP(=O)([O-])OCCC[C@H](C(=O)[O-])N3CCN(CC(=O)[O-])CCN(CP(=O)([O-])O)CCN(CC(=O)[O-])CC3)cc2C)c(C)c1.[Gd+3]	Albumin (ALB, Homo sapiens, UniProt P02768)	albumin binding, variable temperature NMRD fit	albumin-bound complex	0.1 mM, pH 7.4, 37 °C, fit 5-35 °C data, with: HSA 0.66 mM		water residency time	1.4 ns
N=C(N)NCCC[C@@H](NC(=O)[C@H](N)Cc1c[nH]c2ccccc12)C(=O)N[C@H](CCCCN)C(=O)N[C@H](Cc1c[nH]c2ccccc12)C(=O)N[C@H](CCCNC(=N)N)C(=O)N[C@H](CCCCN)C(=O)N[C@H](Cc1c[nH]c2ccccc12)C(=O)N[C@H](CCCNC(=N)N)C(=O)N[C@H](CCCCN)C(=O)N[C@H](Cc1c[nH]c2ccccc12)C(=O)N[C@H](CCCNC(=N)N)C(=O)N[C@H](CCCCN)C(N)=O	chymotrypsin	RP-HPLC		6 h, 37 °C		remaining peptide	> 90%
CN1C(=O)[C@@H](Cc2ccc(O)cc2)NC(=O)CNC(=O)[C@H](Cc2ccc3ccccc3c2)NC(=O)[C@H](CCCNC(=N)N)NC(=O)[C@H]1CCCNC(=O)c1ccc(CNC(=O)CN2CCN(CC(=O)O)CCN(CC(=O)O)CCN(CC(=O)O)CC2)cc1 [gallium-68 labelled]	C-X-C chemokine receptor type 4 (CXCR4, Homo sapiens, UniProt P61073)	PET imaging	human, liver			SUVmax	2.99
CCN(CC)CCOc1ccc(-c2nnn(Cc3ccc(OC)cc3)c2N)cc1	Solute carrier family 22 member 2 (SLC22A2, Homo sapiens, UniProt O15244)	transporter uptake, inhibitor				IC50	0.663 µM
[64Cu+2].c1ccc(CNCc2ccc(CN3CCCNCCNCCCNCC3)cc2)nc1	CXCR4		NOD/SCID mouse, U87 and U87-stb-CXCR4 xenografts, pancreas	iv, 90 min, no blocking dose, ex vivo		tissue uptake	1.48 ± 0.09 %ID/g
O=C(NCCCCCn1ccc2ccc(F)cc21)Oc1cccc(F)c1	Albumin (ALB, Sus scrofa, UniProt P08835)		porcine protein solution 17.5 mg/mL in PBS	20 µM, 0.5 h, 37 °C		remaining parent compound	76 ± 4%
CC[C@H](C)[C@H](NC(=O)[C@H](C)NC(=O)[C@H](C)NC(=O)[C@H](C)NC(=O)[C@H](Cc1c[nH]cn1)NC(=O)[C@H](CCCCN)NC(=O)[C@H](C)NC(=O)[C@H](C)NC(=O)[C@H](C)NC(=O)[C@H](CCC(=O)O)NC(=O)[C@H](CCCCN)NC(=O)[C@H](C)NC(=O)[C@H](C)NC(=O)[C@H](C)NC(=O)[C@H](CCC(=O)O)NC(=O)[C@H](C)NC(C)=O)C(=O)N[C@@H](C)C(=O)N[C@@H](C)C(=O)N[C@@H](CS)C(=O)N[C@@H](C)C(N)=O	trypsin	proteolysis resistance		4 °C, unit not given	baseline: metal-free HCM	stability enhancement	0.8
N=C(N)NCCC[C@@H]1NC(=O)[C@H](CCCNC(=N)N)NC(=O)[C@H](CCCNC(=N)N)NC(=O)[C@H](CCCNC(=N)N)NC(=O)[C@H](Cc2c[nH]c3ccccc23)NC(=O)[C@H](CCCNC(=N)N)NC(=O)[C@H](CCCNC(=N)N)NC(=O)[C@@H](N)CCn2cc(nn2)C[C@@H](C(N)=O)NC1=O	trypsin	substrate, HPLC		pH 7.4, 37 °C		complete degradation time	85 to 110 min
CC(C)(O)c1ccccc1CC[C@H](c1cccc(/C=C/c2ccc3ccc(Cl)cc3n2)c1)S(=O)(=O)CC1(CC(=O)O)CC1	CYP3A4		human liver microsomes	10 µM, pH 7.4, with: midazolam		inhibition	32.8%
CC[C@H](C)[C@H](NC(=O)[C@H](Cc1ccccc1)NC(=O)[C@@H]1CCn2cc(nn2)COCc2cn(nn2)CC[C@H](NC(=O)[C@H](Cc2ccc(O)cc2)NC(=O)[C@H](CO)NC(=O)[C@H](CO)NC(=O)[C@@H](NC(=O)[C@H](CC(=O)O)NC(=O)[C@H](CO)NC(=O)[C@@H](NC(=O)[C@H](Cc2ccccc2)NC(=O)[C@@H](NC(=O)CNC(=O)[C@H](CCC(=O)O)NC(=O)[C@H](C)NC(=O)[C@@H](N)Cc2c[nH]cn2)[C@@H](C)O)[C@@H](C)O)C(C)C)C(=O)N[C@@H](CCC(=O)O)C(=O)NCC(=O)N[C@@H](CCC(N)=O)C(=O)N[C@@H](C)C(=O)N[C@@H](C)C(=O)N[C@@H](CCCCN)C(=O)N1)C(=O)N[C@@H](C)C(=O)N[C@@H](Cc1c[nH]c2ccccc12)C(=O)N[C@@H](CC(C)C)C(=O)N[C@H](C(=O)N[C@@H](CCCCN)C(=O)NCC(=O)N[C@@H](CCCNC(=N)N)C(N)=O)C(C)C	trypsin			room temperature, with: trypsin 500 ng/µL	baseline: wild-type GLP-1	half-life increase	6 fold
